Results from different studies.
A part holds a random share of what one study measured. Substitutions count along the parent as printed.

Study 1 — technique: Sort-seq; refers to: YFP reporter; medium: E. coli; notes: PhoQ-PhoP variant library; added: 10 µM Mg2+; relative to: high Mg2+ state; reading: higher = stronger signaling; measurement: fold induction
Substance: PhoQ, residues 284 288 289 292 302 303 MLMVEA
PhoP, residues 12 14 15 18 19 STHWV (Escherichia coli, UniProt P23836): 22.2
PhoP, residues 12 14 15 18 19 QYCSL (Escherichia coli, UniProt P23836): 5.17
PhoP, residues 12 14 15 18 19 SHWTV (Escherichia coli, UniProt P23836): 14.2

Study 2 — target: CCNB2, cyclin fold, Cln2 fusion (human); technique: yeast growth competition, sequencing; medium: yeast; notes: weak parent motif; relative to: not given; reading: higher = stronger binding; measurement: normalised enrichment score
Parent: SLBP docking peptide (human); ARYKRKLLINDFG; partner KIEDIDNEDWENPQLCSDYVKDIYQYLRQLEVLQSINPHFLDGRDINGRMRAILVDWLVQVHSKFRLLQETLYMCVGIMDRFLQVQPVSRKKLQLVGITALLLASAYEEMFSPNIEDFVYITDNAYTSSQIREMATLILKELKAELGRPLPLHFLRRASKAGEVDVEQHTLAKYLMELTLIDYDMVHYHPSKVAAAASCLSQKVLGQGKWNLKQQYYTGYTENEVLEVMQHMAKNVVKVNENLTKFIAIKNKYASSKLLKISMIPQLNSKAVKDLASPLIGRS
F12D: 0.354
I9P: 0.75
G13K: 0.946
R2V: 0.511
F12H: 0.586
K4M: 0.676
D11I: 0.0906
D11P: 0.897
D11R: 0.531
I9S: 1.07
K4A: 0.318
K6Q: 1.2
I9G: 0.589
N10S: 0.493
F12E: 0.617

Study 3 — technique: protein binding microarray; form: double-stranded DNA, one strand shown; medium: in vitro; tested at: not given; relative to: not given; reading: higher = stronger binding; measurement: E-score
Target: Histone acetyltransferase KAT6A, winged helix 2, GST fusion (KAT6A, Homo sapiens, UniProt Q92794, residues 85-181)
Notes: 8-mer, flanks averaged, mean of 2 arrays, mostly near background
Construct (chain): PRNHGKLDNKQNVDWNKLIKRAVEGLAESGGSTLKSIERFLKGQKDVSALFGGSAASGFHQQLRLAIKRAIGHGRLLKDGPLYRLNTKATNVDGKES
ACACGGTG: -0.0202
CTCCCGAC: 0.0755
CTGCTCGC: 0.0913
CGGCCCTA: 0.0467
CGCCGCCA: 0.0595
AATGTTCC: -0.041
AAAATGAT: 0.139
CGTTAAAG: -0.0331
CAGGCCGC: 0.069
AGCTCCGC: 0.232
CCCAAGTC: -0.228
ATTATCAA: 0.0983
GCTACCCC: -0.102
AGCGCAGG: 0.0454
CAGTTCTA: -0.0567
CGTTCGGC: 0.0686
GCTTAAGC: 0.0734
ATAACCTG: -0.269
TATAGGCA: -0.0492
CCTCCTTC: -0.0216
GAATTCTC: -0.0533
ACATTGTA: -0.0799
CCACCGCA: 0.108
AATTAGAC: 0.0839

Study 4 — technique: DHFR PCA, deep sequencing; medium: yeast; added: (+)-ABA 200 µM; relative to: wild-type fitted maximum; reading: higher = stronger binding; measurement: relative binding score
Target: ABI1, truncated, D143A, DHFR fusion (Arabidopsis thaliana)
Notes: methotrexate growth selection, single substitutions
Parent: PYL1, truncated, DHFR fusion (Arabidopsis thaliana); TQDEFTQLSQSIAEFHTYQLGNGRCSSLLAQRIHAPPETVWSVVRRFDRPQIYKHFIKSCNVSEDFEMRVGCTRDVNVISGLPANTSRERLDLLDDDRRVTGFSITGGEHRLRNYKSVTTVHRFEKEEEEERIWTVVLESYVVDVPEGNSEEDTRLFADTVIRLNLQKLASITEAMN; partner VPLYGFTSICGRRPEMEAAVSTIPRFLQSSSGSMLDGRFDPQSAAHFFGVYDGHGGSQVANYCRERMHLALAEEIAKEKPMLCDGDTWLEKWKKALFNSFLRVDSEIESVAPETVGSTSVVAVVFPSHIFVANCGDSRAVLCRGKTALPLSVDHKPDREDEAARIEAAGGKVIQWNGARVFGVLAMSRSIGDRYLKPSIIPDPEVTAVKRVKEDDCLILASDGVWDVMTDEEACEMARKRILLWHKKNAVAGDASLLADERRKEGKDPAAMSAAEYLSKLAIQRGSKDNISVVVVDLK
D3P: 109%
D92G: 40.3%
A158T: 101%
A170T: 83%
L91E: -5.15%
F103L: 22.7%
E127I: 98.6%
F157R: 1.38%
A30S: 106%
C25M: 89.8%
R113W: 82.2%
T119K: 33.4%
L94S: 55.4%
S104Y: 37.3%
S27T: 69%
V142S: 94.2%

Study 5 — target: CEBPA, bZIP domain (human); technique: DHFR protein complementation; medium: yeast; relative to: wild-type JUN-FOS pair; reading: higher = stronger binding; measurement: binding fitness
Notes: single substitutions, most at no-binding floor
Parent: JUN, bZIP domain (human); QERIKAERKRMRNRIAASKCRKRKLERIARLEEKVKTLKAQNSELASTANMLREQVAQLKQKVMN; partner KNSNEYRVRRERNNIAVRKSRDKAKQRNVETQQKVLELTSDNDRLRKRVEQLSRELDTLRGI
L31N: -1.49 natural log
K36F: -1.48 natural log
E33P: -1.51 natural log
E54W: -1.46 natural log
E32S: -1.45 natural log
L52V: -1.45 natural log
V35W: -1.57 natural log
S47G: -1.45 natural log
V56P: -1.53 natural log
A46K: -1.43 natural log
K36I: -1.48 natural log
E33T: -1.41 natural log

Study 6 — technique: protein-binding microarray; form: double-stranded DNA, one strand shown; medium: in vitro; tested at: 2540 nM top; notes: 60-bp whole probe; added: salmon DNA 0.4 mg/ml; relative to: random background probes; reading: higher = stronger binding; measurement: fitted relative affinity; constant ends, left off below: GCCTAGCAC … GTCTTGATTCGCTTGACGCTGCTG
Target: Interferon regulatory factor 3, full length, phosphomimetic (IRF3, Homo sapiens, UniProt Q14653, residues 1-427, S386D/S396D/S398D/S402D/T404D/S405D)
Construct (chain): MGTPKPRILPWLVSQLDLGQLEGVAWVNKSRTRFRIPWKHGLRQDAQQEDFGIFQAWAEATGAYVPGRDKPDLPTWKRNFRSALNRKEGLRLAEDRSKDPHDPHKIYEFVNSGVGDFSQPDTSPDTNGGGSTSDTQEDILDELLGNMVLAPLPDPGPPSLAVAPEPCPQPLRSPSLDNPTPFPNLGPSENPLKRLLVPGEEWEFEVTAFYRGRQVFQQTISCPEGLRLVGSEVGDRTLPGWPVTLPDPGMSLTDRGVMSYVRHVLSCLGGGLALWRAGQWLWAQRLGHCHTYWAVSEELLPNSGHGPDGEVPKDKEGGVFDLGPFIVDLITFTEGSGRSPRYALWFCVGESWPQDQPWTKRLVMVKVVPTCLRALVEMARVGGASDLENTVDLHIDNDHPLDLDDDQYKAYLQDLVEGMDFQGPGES
TCATTTTTTTTTTCATCATTGTGCTAG: 1.48 z-score
GACGGACTGGGACTGGCGACGTGCTAG: -0.965 z-score
TTAGGACTGGGGTTACGGTTAGTGCTA: -0.619 z-score
TTAGGTATCGGTCTCTGTTAGTGCTAG: 4.57 z-score
GACGATTTCAGTCCCGAGACGTGCTAG: 0.855 z-score
GACGAACTGGGGACTGCAGACGTGCTA: -0.572 z-score
TTACGTCTCCTTCTCCTTTAGTGCTAG: 3.45 z-score
GACGGTTTCGGGTTTCGGGGCGTGCTA: 5.74 z-score
TTATGTCTCGGTTTCGGTTAGTGCTAG: 5.23 z-score
TAAGATCTCAGTATCGATTAGTGCTAG: 0.955 z-score
TTAGATATCAGTACCGATTAGTGCTAG: 1.16 z-score
GACGAACTTGGGTATCGAGACGTGCTA: -0.236 z-score
TCAAGGCTGGTCTCTAACACTGTGCTA: -0.927 z-score
GACGGCTTCGGTTCCGGGACGTGCTAG: 1.18 z-score
CAGCATCTGCAACATCTACAAGTGCTA: -0.394 z-score
GCCGATCTCAGACTGGAGACGTGCTAG: 1.76 z-score
TTAGATTTCGGGTTTCGATTTGTGCTA: 4.15 z-score

Study 7 — technique: RNA Bind-n-Seq; form: RNA; medium: in vitro; tested at: 365 nM; relative to: no-protein control; reading: higher = stronger binding; measurement: RBNS enrichment (R)
Target: RNA binding protein fox-1 homolog 2, RRM domain, GST-SBP tag (RBFOX2, Homo sapiens, UniProt O43251-10, residues 100-194)
Notes: natural RNA segment, single round, ends assumed
Constant ends, left off below: GGGAGUUCUACAGUCCGACGAUC … UGGAAUUCUCGGGUGCCAA
Residues (chain): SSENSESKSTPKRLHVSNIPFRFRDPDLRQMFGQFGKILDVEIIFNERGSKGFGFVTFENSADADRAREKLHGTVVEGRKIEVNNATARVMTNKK
UGCUGUUGACCAGGUAGGCGCAAGUCUUACCAGUGUGGGUCGGGACCAACCUGUUUUCUUCCUCACUUGAAAUUGUACUUUCUGAAAUUUCAAGCAAAUUAAAAACAAUA: 0.501
CUUGCCUCUGUGCUGUGUGUGACGUGACCGGACUUUUCUGCAAACACCAACAUGUUGGGAAACUUGGCUCGAAUCUCUGUGCCUUCGUCUUUCCCAUGGGGAGGGAUUCU: 0.345
UCUAAGUUAACAGUCUCCUAAAGUGACCACCUACAUUUCUUAUAAUCCAGGUAGUUCCUGUCAUGUCCACACACACAUGGAUUGUAGUGAUCCAAUUGCCCCAGUCUCCC: 0.386
UAACAUAUACUUGCUAUAGCUAAUGAAAAGGGCUUUUCUUUUUUCUUUUUCUUUCUCUUUUUUUCCUUUUUCACUCAAAAUACUAUUAAGGAGUUUCUCAGACAAAUUGA: 0.75
ACUAUAUUCAUUUAGUCACUAUAGUGGAUCUCUUCUACUGCAAGUAUUCAUCUGAUUUUUAAAUUAUGUAAAAUGUAAAUCAGCCAAGUAUGUCAUCCGUUAUAGUUUCC: 0.505
AAAAUAUUUUUAGCAGAACAGGACUUACAGGGUCAUUGUCCCCACAAUGUGCCAGUCGGCUCUUUGCACUCGCCUUGUCCUAUAUAUCCGUACGGAGGUGUGCAAUCCUG: 0.368
GACAGAGAUCCUUGGAGGUUCAAAGACCAAGUACCAGACUGGAAAAUUGAGUCUGAAAGCCACAAGGACAGUCAACUCACAGCCAGCUCACAUUGCAGACACCAUUUUGG: 0.255
GUUUCUUUUGAUAUUCGUGGAGGUGAUUGUCAGUGUUUAAACAGGACUACUUUCUCCACUAUGAAGAUGACUUGGAAAUCGCAACAUCAUGGUACAUUGCUAAGUCCAUG: 0.309
CACCGUUCAGGAGGAAGAAAGACUCGGUCACUGAGUGAAGUGGGCUGUGCUCCUGUGAACUGCAGUGCUCCUUGUGCCUGCUGUGAACUGCAGUGCUCCCCAGUGCAGUC: 1.39
AUGGGUCUGCUCACCACCCUCUUCAUGCUUUUCAUAUUCACCUAUGGUCUGCACAUGAUACUCAGCCUAAAGACCAUGGAUCGCUUUGAUGACCACAAGGGCCCCACCAU: 0.303
GCUUAAAAGUGAGCUUGAAACGUGUGCUUACUAUCUCAUCUCUUCCCUAGUCUUAGUAUUGGACGCUAUUUACUCAGCUAUCAAGUAGAGAUCUUCAAGACGGCCUUUAU: 0.613
GGCCUGGGGCGGGGGGAACAGUCACUGGGUCUCAGAUUCUGAGACUGUUGUUUAGCUUACCUUUCUGCUAGGAUUGGCUUCCCGCAGAGGGCAGGGCCCAUCCUAAGCAG: 0.276
